Experimental data pooled from the literature.
Each numbered part is a random draw from the data of one study; scales do not carry over between parts.

Sample 1 — method: protein binding microarray; form: double-stranded DNA, one strand shown; medium: in vitro; concentration: not given; reference: not given; reading: higher = stronger binding
Target: Histone acetyltransferase KAT6A, winged helix 1, GST fusion (KAT6A, Homo sapiens, UniProt Q92794, residues 1-85)
Setting: 8-mer, flanks averaged, mean of 2 arrays, mostly near background
Target sequence (chain): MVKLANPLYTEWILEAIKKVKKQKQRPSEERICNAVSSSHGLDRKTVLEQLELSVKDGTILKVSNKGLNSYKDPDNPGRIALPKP
Oligonucleotide | E-score
ACAGAGCT | -0.0927
CCCCGAAC | 0.128
ACATTGCT | -0.0258
GTACTGGA | -0.0825
CCTGGCAG | -0.157
ATCCCTCA | -0.0317
ACTTTGAT | -0.266
AAGCAAGT | -0.128
GTGCCGAA | 0.172
GTCAGCAA | -0.0907
CCGCTATC | 0.248
AATACCGG | 0.13
TCGACTCA | -0.25
ACGTCCGG | 0.135
ACCGTACA | 0.052
CTATGCGC | 0.35
ATAACACG | 0.2
ATTGTTAG | -0.0342
AATGTGCT | 0.059
TAGCTATA | -0.0602

Sample 2 — method: aptamer microarray, sandwich; form: DNA with 2'F-ANA; medium: in vitro; concentration: 200 nM; together with: Cy3 exosite-II aptamer, 400 nM; reading: higher = stronger binding; oligonucleotide: GGTTGGTGTGGTTGG
Target: Prothrombin, mature alpha-thrombin (F2, Homo sapiens, UniProt P00734)
Setting: whole 15-mer aptamer, many near background
Modification | mean fluorescence intensity
2'F-ANA at 1 2 4 5 6 10 | 46.9 a.u.
2'F-ANA at 2 3 4 5 7 8 10 11 13 14 15 | 49.9 a.u.
2'F-ANA at 1 2 4 5 6 8 9 11 14 15 | 51.1 a.u.
2'F-ANA at 1 5 6 8 11 13 | 50.6 a.u.
2'F-ANA at 2 4 6 7 8 9 10 12 14 15 | 63.3 a.u.
2'F-ANA at 2 5 6 9 13 14 | 45.7 a.u.
2'F-ANA at 1 4 6 8 9 12 14 15 | 59.3 a.u.
2'F-ANA at 1 2 4 5 7 8 9 10 | 51.7 a.u.
2'F-ANA at 1 2 3 4 5 8 10 13 14 | 45.8 a.u.
2'F-ANA at 1 6 7 9 13 14 15 | 54.5 a.u.
2'F-ANA at 1 4 5 7 11 12 13 | 69.2 a.u.
2'F-ANA at 1 4 9 10 11 13 | 52.7 a.u.
2'F-ANA at 1 3 4 7 8 9 12 13 15 | 275 a.u.
2'F-ANA at 4 9 11 14 15 | 78.8 a.u.
2'F-ANA at 2 4 5 10 11 15 | 49.8 a.u.
2'F-ANA at 1 6 7 9 10 11 12 13 15 | 59.4 a.u.
2'F-ANA at 3 7 9 11 12 14 15 | 642 a.u.
2'F-ANA at 1 2 4 5 7 8 12 13 14 15 | 53.5 a.u.
2'F-ANA at 2 5 7 8 9 14 | 60.3 a.u.
2'F-ANA at 1 3 4 5 10 11 | 46.8 a.u.

Sample 3 — method: protein-binding microarray; form: double-stranded DNA, one strand shown; medium: in vitro; concentration: 250 nM; setting: 60-bp whole probe; together with: salmon DNA 0.4 mg/ml; reference: random background probes; reading: higher = stronger binding; constant ends, left off below: GCCTAGCAC … GTCTTGATTCGCTTGACGCTGCTG
Target: Interferon regulatory factor 7, full length, phosphomimetic (IRF7, Homo sapiens, UniProt Q92985, residues 1-503, S101K/S471D/S472D/S475D/S476D/S477D/S483D/S484D/S487D)
Residues (chain): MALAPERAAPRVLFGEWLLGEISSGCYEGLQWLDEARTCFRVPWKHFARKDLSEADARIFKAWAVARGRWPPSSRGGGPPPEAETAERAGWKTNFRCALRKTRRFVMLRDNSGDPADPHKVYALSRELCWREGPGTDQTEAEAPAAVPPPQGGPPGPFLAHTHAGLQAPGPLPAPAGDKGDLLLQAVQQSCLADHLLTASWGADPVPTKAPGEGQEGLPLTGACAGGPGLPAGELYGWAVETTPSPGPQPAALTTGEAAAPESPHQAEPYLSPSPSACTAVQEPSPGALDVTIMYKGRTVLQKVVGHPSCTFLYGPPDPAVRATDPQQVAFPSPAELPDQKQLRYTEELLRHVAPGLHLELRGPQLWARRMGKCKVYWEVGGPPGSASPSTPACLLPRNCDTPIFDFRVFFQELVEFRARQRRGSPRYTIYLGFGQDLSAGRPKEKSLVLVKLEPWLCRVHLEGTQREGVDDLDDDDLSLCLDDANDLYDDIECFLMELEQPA
Oligonucleotide | log fluorescence [z-score]
GTCGGTTTCCTTTTCCTGACGTGCTAG | 8.18
TCATCTGTCCGTGCTCAGACTGTGCTA | 0.536
CAGCACAGCTGACTACAAGCGTGCTAG | -1.25
TTAGATTTCAGTCTCGATTAGTGCTAG | 2.01
GACGTTATCGGACTGGGGACGTGCTAG | -0.0834
TGTAGTGTGTGTCTGATTATGTGCTAG | -0.351
TTAGGTATCCTTCTCCTTTCGTGCTAG | 0.697
TTAGGTTTCGGTATCGGATAGTGCTAG | 10.7
CTAGGACTGGGGTTTCGGTTAGTGCTA | 5.03
TCATGTCTGTTTCCTCTTACTGTGCTA | 1.68
GTATTTGTCCCTATTTAAGAGTGCTAG | 3.79
TGAGGTATCGGTCTCGGTTAGTGCTAG | 1.23
GACGGTTTCGACTATTGGGACGTGCTA | 4.7
TTAGATATCGGTTTCGGTTAGTGCTAG | 9.31
GACGGTATCAGTATCGAGACGTGCTAG | 0.00699
TTAGAACTGGAGACTGGATTAGTGCTA | -0.559
GACGGTCGCGGTCTCGGGACGTGCTAG | -0.222
TTCTTTATGCACTCTTTACATGTGCTA | 0.831

Sample 4 — method: RNA Bind-n-Seq; form: RNA; medium: in vitro; concentration: 365 nM; reference: no-protein control; reading: higher = stronger binding
Target: RNA binding protein fox-1 homolog 2, RRM domain, GST-SBP tag (RBFOX2, Homo sapiens, UniProt O43251-10, residues 100-194)
Setting: natural RNA segment, single round, ends assumed
Construct (chain): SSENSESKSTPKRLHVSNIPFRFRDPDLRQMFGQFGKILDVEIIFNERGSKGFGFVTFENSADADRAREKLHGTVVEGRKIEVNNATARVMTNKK
Oligonucleotide | RBNS enrichment (R)
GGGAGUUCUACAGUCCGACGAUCCCAGUGCCACAUGCAAAGAGUGUAUUUGGUCUAAACAGUUCUUUCCAAACAACCAAAUGGCUGGGCAGCUUGUUGUCACGGAUAAAUGAUAUAAAAUGUAACCACUGAACUGGAAUUCUCGGGUGCCAA | 0.569
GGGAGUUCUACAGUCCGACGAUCUUAUGGAUUUGUGACUUUGGCAUGCAGAAGACAAGAGAGUGGUUAAGUGGAUCUUAUCAUUACUGUGAGUGUGAGACACACACACAUACACAACACACUGUAUGUGCAUAUGGAAUUCUCGGGUGCCAA | 0.545
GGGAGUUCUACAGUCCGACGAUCGGUUGAUGCUGCCACACUUUGUAGAGAGUUUAGCAACACAGUGUGCUUAGUCAGCGUAGGAAUCCUCACUAAAGCAGAAGAAGUUCCAUUCAAAGUGCCAAUGAUAGAGUUGGAAUUCUCGGGUGCCAA | 0.396
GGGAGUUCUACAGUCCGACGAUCUAGUUGGCGAGGCACCUGCACAUUUCUGAGUGUCCAUGUUUCCUUUGAGACAUCCCCAUUUCUAUGUAGGUGGGAUUUUGCUUUCAUUUCUGAUUUAAAUUAGCUCCUUGUGGAAUUCUCGGGUGCCAA | 0.394
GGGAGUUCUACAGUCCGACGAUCUUUCUUGCUUUUUGUUUUGUUUUGUUUUAUUAUUUUCAUAUCACCUCCAUCCCAUAAAGUUGUACUGUGAACUGGAAGAUGGUGGAAUGUUUUGGAAUUUGAUAGACUUUUGGAAUUCUCGGGUGCCAA | 2.76
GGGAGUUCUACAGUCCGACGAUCGGCCGUGUGGCGGCCCUAUAAGCACCCUGGAGACUCUCGGGCCAGCCGAAUCCUUCCCUCCAGCCCGAGACUACAAGAAGAAACAGACUUUGGCCUGGUCCCAGGGGCCAUGGAAUUCUCGGGUGCCAA | 0.357
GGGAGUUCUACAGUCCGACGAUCAAGGUGGUUUGCAACAGUGCUUAGCUCGAGCCUCCAUAUUUCCAUAACUGUUAGCUUAAAACUGUGGGGUUUUACCUUCCUGGAACCAAAUGCAUUCUUCUGUUGAGGAGUGGAAUUCUCGGGUGCCAA | 0.326
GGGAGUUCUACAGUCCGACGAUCCAUUAACUGGCCAGCUCCUCUGAUUUCUGCAGCAUCGCAACAGGUUCGAAGAUGGGUUGUGGCUGGGUAUUCCCUCCCAUGGUGUUUCCUCUGGGAUGCUCUUCAUUAUCUGGAAUUCUCGGGUGCCAA | 0.548
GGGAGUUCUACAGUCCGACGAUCCUGCCUAAGCACAUAACUUUCAAGUUUGUACUAUGAUCCAUGCACUCAUUAAUACCUUGCUCUGCAGUUAUUUUCUAGCAGUCUAUAUAGUAGUUUCACAUCUGUAUUAUUGGAAUUCUCGGGUGCCAA | 0.267
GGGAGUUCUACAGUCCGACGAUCCCUCCUUCCCAGGGACCAGCACCUUCAAGCGCUCCAGGGCCGUGAGGGCAAGAGGGGGACCUGCCACCAGGGAGCUUCCUGGCUCUGGGGGACCCAGGUGGGACUUAGCAUGGAAUUCUCGGGUGCCAA | 2.04
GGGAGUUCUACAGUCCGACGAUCUAAUUAUUGCCCAGUUAUUCUUAAGUAAGGACAAAGAAGGAAAUAUCAUCGUAUUUCUUUUUUUUAAUAAGGAAAAAAUAAUAUCCAUACAGUCAAGAUACAUAGUAAAUUGGAAUUCUCGGGUGCCAA | 0.483
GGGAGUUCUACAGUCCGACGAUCUAUAAAUCCCACCCCCAGAGUGGGGAGGGUCAGGUGCCAGACCUGGACUAAACUGCACCAAGGAAACACCCAGCAGGGUCUCCUGUGAGCCGGGGACCAUGCAGCCCGAAUGGAAUUCUCGGGUGCCAA | 0.739

Some of these lines once more (sample 2):
Modification | mean fluorescence intensity
2'F-ANA at 1 6 7 9 13 14 15 | 54.5 a.u.
2'F-ANA at 1 4 5 7 11 12 13 | 69.2 a.u.
2'F-ANA at 1 4 9 10 11 13 | 52.7 a.u.
2'F-ANA at 1 3 4 7 8 9 12 13 15 | 275 a.u.
2'F-ANA at 4 9 11 14 15 | 78.8 a.u.
2'F-ANA at 2 4 5 10 11 15 | 49.8 a.u.
2'F-ANA at 1 6 7 9 10 11 12 13 15 | 59.4 a.u.
2'F-ANA at 3 7 9 11 12 14 15 | 642 a.u.
2'F-ANA at 1 2 4 5 7 8 12 13 14 15 | 53.5 a.u.
2'F-ANA at 2 5 7 8 9 14 | 60.3 a.u.
